Measured values collected from several papers.
Each line is one published result; not all experiments were run side by side. Numbers after ± are the reported error. Converted amounts (≈) assume the structure as drawn.

Compound	target or system	test	test system	conditions	scale	measurement	value
CCCCC1(CCCC)CN(c2ccccc2)c2cc(SC)c(OCC(=O)N[C@@H](C(=O)NCC(=O)O)c3ccccc3)cc2S(=O)(=O)C1		measured: LDL cholesterol	human, serum	10 mg once daily, day 2		serum LDL-C	111 mg/dL
CC[C@H](C)[C@H](NC(=O)[C@H](C)NC(=O)[C@H](CCCCN)NC(=O)[C@H](CC(C)C)NC(=O)[C@H](C)NC(=O)[C@@H](NC(=O)[C@H](Cc1c[nH]cn1)NC(=O)[C@H](CC(C)C)NC(=O)[C@@H](NC(=O)[C@@H](NC(=O)[C@H](CCCCN)NC(=O)[C@H](C)NC(=O)[C@H](C)NC(=O)[C@H](CO)NC(=O)[C@H](CCCCN)NC(=O)[C@H](Cc1ccccc1)NC(=O)[C@@H](NC(=O)[C@H](CCCCN)NC(=O)[C@H](CC(C)C)NC(=O)[C@H](Cc1ccccc1)NC(=O)[C@H](CO)NC(=O)[C@H](CCCCN)NC(=O)[C@H](Cc1c[nH]c2ccccc12)NC(=O)[C@H](CCCCN)NC(C)=O)[C@@H](C)O)[C@@H](C)O)C(C)C)[C@@H](C)O)C(=O)N[C@@H](CO)C(=O)N[C@@H](CO)C(N)=O	Acinetobacter baumannii		IPM-R	87 strains		MIC50	4 µg/mL (≈ 1.36 µM)
Cl.N=C(CC(O)c1cc2c(F)cc(F)cc2c2cc(C(F)(F)F)ccc12)Nc1ccc(Br)cc1 (stereo not shown)	Plasmodium berghei	Peters test	ANKA, mice	oral, 4 x 50 mg/kg		mean survival time	30 days
CC[C@@H](NC(=O)CNC(=O)[C@@H](Cc1ccccc1)NC(=O)CNC(=O)[C@H](N)CCC(N)=O)C(=O)N[C@H](CC(=O)O)C(=O)N[C@H](CCC(=O)O)C(=O)N[C@H](CCSC)C(=O)N[C@H](CC(C)C)C(=O)N[C@H](CCC(N)=O)C(=O)NCC(=O)N[C@H](Cc1ccccc1)C(=O)N[C@H](C)C(=O)N[C@@H](C(=O)N[C@H](C)C(=O)N[C@@H](C(=O)N[C@H](CCCCN)C(=O)N[C@H](CCSC)C(=O)NCC(=O)N[C@H](C)C(=O)N[C@H](Cc1ccc(O)cc1)C(=O)N[C@H](CCCCN)C(=O)N[C@H](C)C(=O)N[C@H](Cc1c[nH]c2ccccc12)C(=O)O)C(C)C)C(C)C	hemagglutinin influenza A/California/07/2009 H1N1					IC50	36 µM
CNCCc1c[nH]c2ccccc12	NMT from Rhinella marina			10 min, 30 °C		kcat	0.0021 s⁻¹
COCCC1=C(C(=O)OC)C(c2ccc(Cl)cc2)C2=C(CC(c3ccc(OC)c(OC)c3)CC2=O)N1 (single isomer, unassigned)	Plasmodium berghei	parasitaemia	KBG-173, mouse	oral, 50 mg/kg, day 3 post-infection, PEG400 vehicle, Thompson test	relative to: vehicle	inhibition	100%
Nc1ncnc2c1ncn2[C@@H]1O[C@@H]2COP(=O)(O)O[C@H]3[C@@H](O)[C@H](n4cnc5c(=O)[nH]cnc54)O[C@@H]3COP(=O)(O)O[C@H]2[C@H]1O	West Nile virus	RNA sequencing, measured: extracellular matrix degradation R-HSA-1474228	HFF-1 cells	concentration not given, downregulated pathway	relative to: WNV-infected untreated cells	fold enrichment	4.71
c1ccc(C(NCCNC(c2ccccc2)c2ccccc2)c2ccccc2)cc1	insulin receptor (rat)			10 µM		inhibition	0%
COc1cc(CCC[P+](c2ccccc2)(c2ccccc2)c2ccccc2)c(OC)c2c1OCO2.[I-]	PC-3	SRB				LC50	> -4 log M
CS(=O)(=O)CCCn1c(Cn2c(=O)n(CC(F)(F)F)c3ccncc32)cc2cc(Cl)ccc21	respiratory syncytial virus	RT-qPCR	hospitalized infants 1-24 months, nasal swab	oral, 9, 6 or 5 mg/kg daily, day 7, high dose by age cohort	relative to: baseline	LS mean viral load change	-3.96 log10 copies/mL
Cc1cn(-c2cc(NC(=O)c3ccc(C)c(Nc4nccc(-c5cccnc5)n4)c3)cc(C(F)(F)F)c2)cn1			human patients	dose not given, 12 months vs baseline, within treated group, unit not given	relative to: baseline	ADAS-Cog maze time change	1.25
O=C1NC(=O)C(C2C3=C(CCCC3=O)Oc3ccc([N+](=O)[O-])cc32)C(=O)N1 (stereo not shown)	3T3-L1 adipocytes	qPCR, measured: FAS		IC20, 14 days	relative to: untreated mature adipocytes	mRNA level	decreased
CC(C)=CCc1c(O)cc(O)cc1-c1cc2ccc(O)c(CC=C(C)C)c2o1	MCF7	cell growth, MTT		12.5 µg/mL, 48 h		cell survival	78.3 ± 0.82%
O=C(Cc1ccc(Br)cc1)N[C@H]1CCOC1=O	ExpR1 (Pectobacterium carotovorum)	cellulase activity, antagonist	Pectobacterium carotovorum, single-ExpR1 strain	5 µM, 4 h, together with: OHHL 5 µM		inhibition	71%
COc1c(CCC[P+](c2ccccc2)(c2ccccc2)c2ccccc2)cc2c(c1OC)OCO2.[I-]	SK-MEL-2	SRB				TGI	-4.85 log M
COc1ccc2ccc3oc([N+](=O)[O-])cc3c2c1Br	Mycobacterium bovis BCG		1173 P2			MIC90	0.25 µg/mL (≈ 0.776 µM)
CC(C)N1CCC(NC2CCN(c3cccc(-c4cc5cc(F)ccc5[nH]4)c3)CC2)CC1	UACC-62					CC50	6.74 µM
C#CC[C@@H](N)C(=O)N[C@H](CO)C(=O)N[C@@H](C(=O)N[C@H](CO)C(=O)N[C@H](CCC(=O)O)C(=O)N[C@@H](C(=O)N[C@H](CCC(N)=O)C(=O)N[C@H](CC(C)C)C(=O)N[C@H](CCSC)C(=O)N[C@H](Cc1c[nH]cn1)C(=O)N[C@H](CC(N)=O)C(=O)N[C@H](CC(C)C)C(=O)NCC(=O)N[C@H](CCCCN)C(=O)N[C@H](Cc1c[nH]cn1)C(=O)N[C@H](CC(C)C)C(=O)NCC(=O)N[C@H](CO)C(=O)N[C@H](CCSC)C(=O)N[C@H](C)C(=O)N[C@H](CCCNC(=N)N)C(=O)N[C@@H](C(=O)N[C@H](Cc1ccc(O)cc1)C(=O)N[C@H](Cc1ccccc1)C(=O)N[C@H](CC(C)C)C(=O)N[C@H](CCCNC(=N)N)C(=O)N[C@H](Cc1ccccc1)C(=O)N[C@H](CCCCN)C(=O)N[C@H](CC(C)C)C(=O)N[C@H](CCC(N)=O)C(=O)N[C@H](CC(C)C)C(=O)N[C@@H](C(N)=O)C(C)C)C(C)C)[C@H](C)CC)C(C)C	hemagglutinin influenza A/California/07/2009 H1N1					IC50	72 µM
CSc1cccc(CC(=O)N[C@H]2CCOC2=O)c1	ExpR1 (Pectobacterium carotovorum)	cellulase activity, agonist	Pectobacterium carotovorum, single-ExpR1 strain	200 µM, 4 h	relative to: OHHL	activation	0%
CC[C@H](C)[C@@H]1NC(=O)[C@@H]2CCCN2C(=O)[C@H](CC(C)C)NC(=O)[C@H](CC(C)C)NC(=O)CNC(=O)[C@@H](NC(=O)[C@@H](NC(=O)[C@H](CC(=O)O)NC(=O)CNC(=O)[C@@H](NC(=O)[C@H](C)NC(=O)CNC(=O)[C@H](CCCCN)NC(=O)[C@H](CC(C)C)NC(=O)[C@H](CC(C)C)NC(=O)[C@H](CCCCN)NC(=O)CNC(=O)[C@@H](NC(=O)[C@@H](N)CC(C)C)C(C)C)C(C)C)C(C)C)CSSC[C@@H](C(=O)O)NC1=O		RNA-seq, measured: Apobr mRNA	mouse traumatic brain injury, frontal cortex and hippocampus	dose not given	relative to: TBI plus compound vs TBI	log2 fold change	-2.24
CN1CC[C@]23c4c5ccc(O)c4O[C@H]2[C@@H](O)C=C[C@H]3[C@H]1C5		hot water tail withdrawal test	normal Sprague-Dawley rats	dose not given		time to peak effect	45 to 60 min
COc1ccc(-n2nc(C(C)=O)s/c2=N\N=C(/C)c2ccc(NC(C)=O)cc2)cc1	MCF7			10 µM		toxicity	93.3%

Repeated from above:
Compound	target or system	test	test system	conditions	scale	measurement	value
COc1ccc2ccc3oc([N+](=O)[O-])cc3c2c1Br	Mycobacterium bovis BCG		1173 P2			MIC90	0.25 µg/mL (≈ 0.776 µM)
Cl.N=C(CC(O)c1cc2c(F)cc(F)cc2c2cc(C(F)(F)F)ccc12)Nc1ccc(Br)cc1 (stereo not shown)	Plasmodium berghei	Peters test	ANKA, mice	oral, 4 x 50 mg/kg		mean survival time	30 days
CSc1cccc(CC(=O)N[C@H]2CCOC2=O)c1	ExpR1 (Pectobacterium carotovorum)	cellulase activity, agonist	Pectobacterium carotovorum, single-ExpR1 strain	200 µM, 4 h	relative to: OHHL	activation	0%
